Experimental data gathered from unrelated publications.
Each numbered part is a random draw from the data of one study; scales do not carry over between parts. Positions count from the first letter of the parent shown.

Study 1
Target: RING finger protein unkempt homolog, zinc fingers 1-6, GST-SBP tag (UNK, Homo sapiens, UniProt Q9C0B0, residues 30-357)
Sequence of UniProt Q9C0B0 (30-357, looked up): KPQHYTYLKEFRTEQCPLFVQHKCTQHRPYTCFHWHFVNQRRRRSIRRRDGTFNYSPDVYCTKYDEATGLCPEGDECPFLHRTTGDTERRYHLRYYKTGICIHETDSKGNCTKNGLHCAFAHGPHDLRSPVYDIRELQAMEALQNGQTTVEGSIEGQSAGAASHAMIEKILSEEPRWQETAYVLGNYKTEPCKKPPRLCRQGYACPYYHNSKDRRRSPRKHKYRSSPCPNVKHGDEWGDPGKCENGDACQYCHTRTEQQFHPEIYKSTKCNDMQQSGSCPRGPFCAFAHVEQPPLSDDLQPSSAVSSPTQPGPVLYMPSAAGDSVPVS
Technique: RNA Bind-n-Seq
Molecule type: RNA
Medium: in vitro
Tested at: not given
Setting: RNA with constant flanks, human and mouse sites, ends assumed
Baseline: input RNA pool
Reading: higher = stronger binding
Constant ends, left off below: GGGAGUUCUACAGUCCGACGAUC … CAACAGAGGAUUGAGCAUCA
| Strand | bound/input enrichment [ratio] |
| --- | --- |
| AUAAAUGAAUGAUCACACACUCAUAUAAAACAGUUUUCUCUUAGAGCAGAGGUAGAGUUAAUAUAGAAAAACUAACAAAAAUCUUACAAGGGCAAGCUCAAUCAAUGAACAGUUUCUAGA | 5.96 |
| GAGAGCAAUUUUAACCUUACUCAUUAUGGAACUCAGCAAAUCCCUCCUGCUUACAAAGAUUUAGCUGAGCCAUGGAUUCAGGUGUUUGGAAUGGAACUCGUUGGCUGCUUAUUUUCUAGA | 0.207 |
| GUUCAAAAAUAUGAUCCCAUUAACUCGAUGCUGAGUAUCUACAUGGAUACAUUAAAUAUAUUUAUGCGAGUUGCAACUAUGCUGGCAACUGGAGGCAACAGAAAGAAAUGAAGUGACUCA | 0.432 |
| CCAGUAGAACCACAAGGGACUUCGGGUGCCACUCAGCAAGAUACUGCCAAAGGUGACCAACUAGAAAGAGUUUCUAAUGGACCUGUGUUAACUCUGGGUGGGUCACCGUCCACAAGCAGU | 0.178 |
| UGUCAGCAGAAACAUUUAAUGUGAAAUAAUUCUGUAUUUCUGAGACAAGAUCAACACAGUAGUUCUUUACAUUGAGCUGAGGUGAAUGUAUACUUAAAAAUACUCUAUUUUCUUUUUAUA | 0.312 |
| AUGAAUCUAAAUUGCAUUUAUGCAUUGGAUUUGGCUCACAGACCUACGUAAGGAGCACACUGUAUUAUGAAACAUUGUCACAGUAUAGCUAGACAUUGUACUUCGUCCUUUUCUAGCCCU | 0.153 |
| UUGGCUCUGGACUGGGCAUUGGAAGGGAAUGAGGGAGGAGGGGGCAGAAGCAGGCCGGGGCUGGCUUUGCUGCCUCUCCCAGGAGACAGGGCUACAGCUUCCAAACCUUUUGUGUGUUGA | 0.25 |
| AAAGGGAAAUCUGUCCGUGUUCAUGUACAGUUCUUUGAUGACAGCCCAACAAGGGGCUGGGUUAGCAAAAGGAUGUUAAAGCCAUAUACAGGUUCAAAGUCAAAGGAAGCCCAAAAGGGA | 0.227 |

Study 2
Target: TAR DNA-binding protein 43, full length, His tag (TARDBP, Homo sapiens, UniProt Q13148, residues 1-414)
Technique: RNA Bind-n-Seq
Molecule type: RNA
Medium: in vitro
Tested at: 20 nM
Setting: 6-mer, flanks averaged, single round
With: 150 mM KCl
Baseline: input library
Reading: higher = stronger binding
| Strand | 6-mer enrichment (R) |
| --- | --- |
| GCACUG | 0.938 |
| GCUACC | 0.675 |
| UCCAAC | 0.589 |
| CCGGUC | 0.761 |
| GUGUGA | 1.83 |
| AUGAGA | 0.935 |
| CACGCU | 0.648 |
| GAAUCU | 0.625 |

Further values, each from its own experiment
P1: viral docking peptide; KKVKRRLFETREL; partner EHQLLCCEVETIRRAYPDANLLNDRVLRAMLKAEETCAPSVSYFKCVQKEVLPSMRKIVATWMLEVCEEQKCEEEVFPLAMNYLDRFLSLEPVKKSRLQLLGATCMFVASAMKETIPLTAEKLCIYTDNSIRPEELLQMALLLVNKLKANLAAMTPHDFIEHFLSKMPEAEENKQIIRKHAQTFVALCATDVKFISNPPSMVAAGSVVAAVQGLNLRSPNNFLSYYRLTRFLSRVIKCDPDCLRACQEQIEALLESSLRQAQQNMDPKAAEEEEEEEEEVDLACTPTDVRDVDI
| Substance | tested on | assay | system | setting | how to read | measurement | result |
| --- | --- | --- | --- | --- | --- | --- | --- |
| CHD3 (Homo sapiens, UniProt Q12873) | CHD5 (Homo sapiens, UniProt Q8TDI0) | cross-linking MS |  | hits only |  | interaction screen | cross-linked |
| P1 T10A | CCND1, cyclin fold, Cln2 fusion (human) | yeast growth competition, sequencing | yeast | weak parent motif | baseline: not given, higher = stronger binding | normalised enrichment score | 0.218 |

Excerpt of the above (study 2):
| Strand | 6-mer enrichment (R) |
| --- | --- |
| GUGUGA | 1.83 |
| GCACUG | 0.938 |
| UCCAAC | 0.589 |
